Measured values of several laboratories.
Compare with care: the assays were run in different laboratories.

CC(C)CC(=O)C(=O)O: “log2 fold change” -0.459 (binding, MIDAS equilibrium dialysis LC-MS; A2AR-BRIL thermostabilized; concentration not given; relative to: no-protein control).
The EC50 of O=C(Cc1ccccc1)Nc1nnc(CCSCCc2nnc(NC(=O)Cc3ccccc3)s2)s1 is reported as 3100 nM (TSE breast cancer cells; cell proliferation, automated cell counting; 144 h).
For O=C1N=C(N2CCCCC2)O/C1=C\c1ccccc1O, EC50 read “inactive” (NG108-cl; clomeleon fluorescence, measured: intracellular chloride reduction; 5 h).
With C[C@]12CCCN1CC1=NNC(=O)c3cc(F)cc4[nH]c2c1c34 the EC50 was 2900 nM (MEF PTEN+/-; cell proliferation, CellTiter-Glo; 168 h).
CCC(C)(C)C(=O)C(=O)N1CCCC[C@H]1C(=O)N[C@H](CCc1ccc(OC)cc1)C(=O)N1[C@@H]2CC[C@H]1C[C@H](Nc1nc(NCCc3sc(N)nc3C)nc(N3CCn4ncnc4C3)n1)C2 has an EC50 of 11500 nM (GFP-LC3 HeLa; GFP-LC3 puncta formation; with: rapamycin 5 µM).
C[C@]1(c2nc3c(C(N)=O)cccc3[nH]2)CCCN1 gave an EC50 of over 10000 nM (MEF PTEN+/-; cell proliferation, CellTiter-Glo; 168 h).
COc1cnc2cccc(N3CCc4c(cc(Cn5ccnc5C)cc4-c4cn(C)nc4C(F)(F)F)C3=O)c2c1 gave an EC50 of 41.6 nM (RL; cell growth; 120 h).
Cn1cc(-c2ccc(-c3cncc(Cl)c3N3CCC4(CCNC4=O)CC3)cc2)cn1 — result for “log2 fold change”: 1.22 (COLO 205; gene expression, microarray, measured: EIF4EBP1 mRNA; concentration not given, 6 h; relative to: untreated cells).
The EC50 of Cc1nc(NC(=O)N2CCC[C@H]2C(N)=O)sc1-c1ccnc(C(C)(C)C(F)(F)F)c1 is reported as 2690 nM (HCC1954 PIK3CA H1047R; cell viability, ATP luminescence; 120 h).
The EC50 of CC(C)C[C@@H](C=O)NC(=O)[C@H](CC(C)C)NC(=O)[C@H](CC(C)C)NC(=O)OCc1ccccc1 is reported as 5010 nM (LDR; silenced CMV-GFP reporter derepression, qHTS).
O=C1N=C(N2CCCCC2)S/C1=C/c1cnccc1O — result for EC50: “inactive” (NG108-cl; clomeleon fluorescence, measured: intracellular chloride reduction; 5 h).
O=C1CCNC(=O)N1 — result for “log2 fold change”: -0.539 (binding, MIDAS equilibrium dialysis LC-MS; A2AR-BRIL thermostabilized; concentration not given; relative to: no-protein control).
O=C1N=C(N2CCCCC2)S/C1=C/c1cccc(F)c1O: EC50 “inactive” (NG108-cl; clomeleon fluorescence, measured: intracellular chloride reduction; 5 h).
With CCn1cc(-c2cc(Cn3ccoc3=N)cc3c2CCN([C@@H](C)c2cc(OC)ccn2)C3=O)c(C(F)(F)F)n1 the EC50 was 16.7 nM (Panc 04.03; cell growth; 120 h).
NC1=NC(=O)/C(=C/c2ccccc2O)S1: EC50 “inactive” (NG108-cl; clomeleon fluorescence, measured: intracellular chloride reduction; 5 h).
With CCn1cc(-c2cc(Cn3ccnc3)cc3c2CCN([C@H](c2cc(OC)ccn2)C2CC2)C3=O)c(C(F)(F)F)n1 the EC50 was 19 nM (RL; cell growth; 120 h).

Some of these lines once more:
NC1=NC(=O)/C(=C/c2ccccc2O)S1: EC50 “inactive” (NG108-cl; clomeleon fluorescence, measured: intracellular chloride reduction; 5 h).
With CCn1cc(-c2cc(Cn3ccnc3)cc3c2CCN([C@H](c2cc(OC)ccn2)C2CC2)C3=O)c(C(F)(F)F)n1 the EC50 was 19 nM (RL; cell growth; 120 h).
